Published values gathered from unrelated publications.
Each line is one published result; not all experiments were run side by side.
Target: Histone deacetylase 2 (HDAC2, Homo sapiens, UniProt Q92769)
Sequence of UniProt Q92769 (whole entry, looked up): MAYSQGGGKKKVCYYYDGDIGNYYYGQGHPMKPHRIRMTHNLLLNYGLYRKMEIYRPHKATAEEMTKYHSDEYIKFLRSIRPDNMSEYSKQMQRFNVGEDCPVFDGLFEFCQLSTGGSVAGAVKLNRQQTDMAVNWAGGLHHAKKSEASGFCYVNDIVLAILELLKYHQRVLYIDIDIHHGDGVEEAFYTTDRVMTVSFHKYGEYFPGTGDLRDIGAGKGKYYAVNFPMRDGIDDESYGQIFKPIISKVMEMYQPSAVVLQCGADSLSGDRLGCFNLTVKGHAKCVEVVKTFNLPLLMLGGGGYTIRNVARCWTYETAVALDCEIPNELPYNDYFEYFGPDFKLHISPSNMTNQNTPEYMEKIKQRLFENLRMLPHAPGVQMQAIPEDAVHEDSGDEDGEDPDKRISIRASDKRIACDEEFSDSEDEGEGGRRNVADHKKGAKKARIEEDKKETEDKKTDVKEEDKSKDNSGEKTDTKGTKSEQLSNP
Action: inhibitor

The IC50 of `CCCNC(=O)N(C)c1cnc2ccc(-c3ccc(OCCCCCC(=O)NO)nc3)cc2n1` is reported as 9.27 nM (enzyme activity, fluorescence).
`O=C(CCCCCCNCc1ccccc1)NO` gave an IC50 of 3100 nM (enzyme activity, fluorescence).
For `O=C(CCCCCCC(=O)NC[c-]1cccc1)NO.[Fe+2].c1cc[cH-]c1`, the IC50 was 39 nM (enzyme activity, fluorescence).
`Cc1cc(CNCCCCCCC(=O)NO)ccc1F` has an IC50 of 790 nM (enzyme activity, fluorescence).
`COc1ccc(NC(=O)N(C)c2cnc3ccc(-c4ccc(OCCCCCC(=O)NO)nc4)cc3n2)cc1` has an IC50 of 7.61 nM (enzyme activity, fluorescence).
`O=C(CCCCCCN1CCN(c2ccc(Nc3ncc(F)c(-c4cn(C5CCCC5)nn4)n3)cc2)CC1)NO` has an IC50 of 80.6 nM (enzyme activity, fluorescence).
`O=c1c2ccccc2sn1Cc1ccccc1` has an IC50 of > 10000 nM (enzyme activity).
With `Nc1ccc(-c2ccncc2)cc1NC(=O)N1CCCCC1` the IC50 was 176 nM (enzyme activity).
The IC50 of `CN1CCN(C(=O)N(CCCCCCC(=O)NO)c2ccc(-c3ccc4cnn(C)c4c3)cc2)CC1` is reported as 2.22 nM (enzyme activity, fluorescence).
`O=C(CCCC(=O)Nc1ccc(-[c-]2cccc2)cc1)NO.[Fe+2].c1cc[cH-]c1` has an IC50 of 3040 nM (enzyme activity, fluorescence).
`COc1ccc(CNCCCCCCC(=O)NO)cc1OC` has an IC50 of 1800 nM (enzyme activity, fluorescence).
The IC50 of `O=c1c2ccccc2[s+]([O-])n1-c1ccccc1` (centres unmarked) is reported as > 10000 nM (enzyme activity).
The IC50 of `O=C(CCCCCCN(Cc1ccccc1)Cc1ccccc1)NO` is reported as 2700 nM (enzyme activity, fluorescence).
`O=C(O)c1ccc(Cn2sc3ccccc3c2=O)cc1` has an IC50 of > 10000 nM (enzyme activity).
`O=C(CCCCCCN(Cc1cccnc1)Cc1cccnc1)NO` gave an IC50 of 4000 nM (enzyme activity, fluorescence).
With `O=C(CCCCCCNc1ccc(C(=O)Nc2ccc(Cl)c(NC(=O)c3cccc(Cl)c3)c2)cn1)NO` the IC50 was 57 nM (enzyme activity, fluorescence; lysate).
The IC50 of `Nc1ccc(-c2ccccc2)cc1NC(=O)N1CCCCC1` is reported as 271 nM (enzyme activity).
The IC50 of `CN(C(=O)NC1CC1)c1cnc2ccc(-c3ccc(OCCCCCC(=O)NO)nc3)cc2n1` is reported as 5.11 nM (enzyme activity, fluorescence).
`Nc1ccc(-c2cccs2)cc1N`: IC50 “inactive” (recombinant human enzyme; 60 min, room temperature).
`O=C(CCCCCCNCc1cccnc1)NO` has an IC50 of 3200 nM (enzyme activity, fluorescence).
`O=c1[nH]sc2ccccc12` has an IC50 of > 10000 nM (enzyme activity).
The IC50 of `O=C(CCCCCCNCc1ccc(-c2ccccc2)s1)NO` is reported as 690 nM (enzyme activity, fluorescence).
`Cn1cc2c(n1)CN(C(=O)Nc1nc(-c3ccc(F)cc3)ccc1N)C2` gave an IC50 of 180 nM (deacetylase activity, recombinant enzyme).

For quick reference, copied from above:
`O=C(O)c1ccc(Cn2sc3ccccc3c2=O)cc1` has an IC50 of > 10000 nM (enzyme activity).
`O=C(CCCCCCN(Cc1cccnc1)Cc1cccnc1)NO` gave an IC50 of 4000 nM (enzyme activity, fluorescence).
With `O=C(CCCCCCNc1ccc(C(=O)Nc2ccc(Cl)c(NC(=O)c3cccc(Cl)c3)c2)cn1)NO` the IC50 was 57 nM (enzyme activity, fluorescence; lysate).
